# Published values pooled from the literature.
# Parts stem from different laboratories: compare values within a part only. Several values in a cell are separate wells, animals, samples, runs or records.
# UniProt P54753, sequence (whole entry, looked up): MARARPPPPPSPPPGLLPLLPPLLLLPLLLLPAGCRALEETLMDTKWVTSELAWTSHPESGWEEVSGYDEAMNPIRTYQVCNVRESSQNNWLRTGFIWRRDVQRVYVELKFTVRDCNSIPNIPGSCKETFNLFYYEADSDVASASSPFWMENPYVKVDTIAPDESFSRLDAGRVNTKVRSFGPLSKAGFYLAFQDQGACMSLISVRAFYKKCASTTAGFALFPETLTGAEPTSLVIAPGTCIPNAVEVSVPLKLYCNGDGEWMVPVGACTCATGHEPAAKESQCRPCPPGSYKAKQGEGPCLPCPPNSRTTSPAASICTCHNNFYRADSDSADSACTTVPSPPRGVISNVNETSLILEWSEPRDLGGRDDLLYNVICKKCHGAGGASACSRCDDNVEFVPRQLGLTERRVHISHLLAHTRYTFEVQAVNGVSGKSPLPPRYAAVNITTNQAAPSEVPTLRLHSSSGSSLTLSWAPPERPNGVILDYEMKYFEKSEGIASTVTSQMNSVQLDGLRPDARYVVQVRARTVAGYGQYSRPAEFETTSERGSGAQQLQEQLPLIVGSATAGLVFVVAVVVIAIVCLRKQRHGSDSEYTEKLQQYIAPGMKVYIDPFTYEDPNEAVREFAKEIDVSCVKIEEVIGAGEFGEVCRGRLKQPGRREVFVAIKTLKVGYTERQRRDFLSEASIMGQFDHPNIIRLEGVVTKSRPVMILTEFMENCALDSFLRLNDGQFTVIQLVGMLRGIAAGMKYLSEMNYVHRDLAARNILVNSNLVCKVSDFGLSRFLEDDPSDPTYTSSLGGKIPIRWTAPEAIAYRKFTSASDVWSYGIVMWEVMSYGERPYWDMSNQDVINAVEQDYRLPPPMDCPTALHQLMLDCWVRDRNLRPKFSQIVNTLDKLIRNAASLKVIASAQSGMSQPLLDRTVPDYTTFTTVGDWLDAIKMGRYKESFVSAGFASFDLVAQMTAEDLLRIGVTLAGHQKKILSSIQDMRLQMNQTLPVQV
# UniProt P35368, sequence (whole entry, looked up): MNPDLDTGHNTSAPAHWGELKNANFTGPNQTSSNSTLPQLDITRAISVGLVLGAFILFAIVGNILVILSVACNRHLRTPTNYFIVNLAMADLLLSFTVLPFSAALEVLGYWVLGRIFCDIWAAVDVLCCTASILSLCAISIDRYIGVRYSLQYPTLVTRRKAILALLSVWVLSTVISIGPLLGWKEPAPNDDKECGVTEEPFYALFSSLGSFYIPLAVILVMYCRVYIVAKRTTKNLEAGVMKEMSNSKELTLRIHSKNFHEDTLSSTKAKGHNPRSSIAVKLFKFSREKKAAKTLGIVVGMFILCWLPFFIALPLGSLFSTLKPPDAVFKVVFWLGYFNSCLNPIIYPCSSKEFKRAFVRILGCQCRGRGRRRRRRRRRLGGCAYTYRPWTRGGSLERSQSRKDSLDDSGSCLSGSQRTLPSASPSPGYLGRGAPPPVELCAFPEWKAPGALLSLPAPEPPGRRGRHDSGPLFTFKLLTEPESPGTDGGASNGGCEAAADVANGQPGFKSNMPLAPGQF
# UniProt P42680, sequence (whole entry, looked up): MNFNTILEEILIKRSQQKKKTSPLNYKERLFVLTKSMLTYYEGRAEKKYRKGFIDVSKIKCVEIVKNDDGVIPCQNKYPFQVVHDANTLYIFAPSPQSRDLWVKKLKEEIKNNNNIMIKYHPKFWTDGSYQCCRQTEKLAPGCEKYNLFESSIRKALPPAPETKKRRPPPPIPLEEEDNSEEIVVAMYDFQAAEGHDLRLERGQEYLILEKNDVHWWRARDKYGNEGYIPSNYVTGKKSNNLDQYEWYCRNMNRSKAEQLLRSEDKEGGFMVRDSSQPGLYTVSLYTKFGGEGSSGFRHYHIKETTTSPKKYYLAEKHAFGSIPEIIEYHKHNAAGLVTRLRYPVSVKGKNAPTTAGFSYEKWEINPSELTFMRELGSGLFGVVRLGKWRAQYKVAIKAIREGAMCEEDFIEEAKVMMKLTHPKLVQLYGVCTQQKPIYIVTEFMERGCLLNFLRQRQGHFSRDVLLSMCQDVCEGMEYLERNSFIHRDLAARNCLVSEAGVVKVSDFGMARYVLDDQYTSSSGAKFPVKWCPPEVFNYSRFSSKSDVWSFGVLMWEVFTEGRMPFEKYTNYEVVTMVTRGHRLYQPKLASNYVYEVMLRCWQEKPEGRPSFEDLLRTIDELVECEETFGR
# UniProt P49674, sequence (whole entry, looked up): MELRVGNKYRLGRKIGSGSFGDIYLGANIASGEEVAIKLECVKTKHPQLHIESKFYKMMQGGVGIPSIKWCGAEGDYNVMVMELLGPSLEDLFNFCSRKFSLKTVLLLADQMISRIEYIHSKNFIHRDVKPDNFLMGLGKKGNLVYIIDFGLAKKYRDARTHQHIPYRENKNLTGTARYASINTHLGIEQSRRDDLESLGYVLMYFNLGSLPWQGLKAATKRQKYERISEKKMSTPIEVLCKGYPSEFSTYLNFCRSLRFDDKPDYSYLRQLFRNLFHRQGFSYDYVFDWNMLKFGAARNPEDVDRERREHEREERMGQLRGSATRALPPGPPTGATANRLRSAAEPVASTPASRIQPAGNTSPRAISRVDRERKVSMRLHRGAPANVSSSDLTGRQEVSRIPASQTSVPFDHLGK
# UniProt P07947, sequence (whole entry, looked up): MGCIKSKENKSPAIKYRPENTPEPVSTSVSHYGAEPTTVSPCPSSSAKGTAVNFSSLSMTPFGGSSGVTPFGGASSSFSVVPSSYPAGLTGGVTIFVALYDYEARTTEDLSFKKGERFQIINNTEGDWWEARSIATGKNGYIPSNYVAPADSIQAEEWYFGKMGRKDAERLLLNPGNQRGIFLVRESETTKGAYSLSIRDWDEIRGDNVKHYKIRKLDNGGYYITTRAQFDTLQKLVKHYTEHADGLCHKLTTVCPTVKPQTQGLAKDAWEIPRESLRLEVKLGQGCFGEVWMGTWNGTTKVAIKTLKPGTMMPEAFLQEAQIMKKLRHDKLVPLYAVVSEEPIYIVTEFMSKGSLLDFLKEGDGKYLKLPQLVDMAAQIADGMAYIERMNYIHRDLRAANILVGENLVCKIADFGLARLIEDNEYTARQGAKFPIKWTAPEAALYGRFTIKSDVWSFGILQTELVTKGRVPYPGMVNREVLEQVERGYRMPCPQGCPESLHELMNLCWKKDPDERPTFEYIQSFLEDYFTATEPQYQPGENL
# UniProt P47898, sequence (whole entry, looked up): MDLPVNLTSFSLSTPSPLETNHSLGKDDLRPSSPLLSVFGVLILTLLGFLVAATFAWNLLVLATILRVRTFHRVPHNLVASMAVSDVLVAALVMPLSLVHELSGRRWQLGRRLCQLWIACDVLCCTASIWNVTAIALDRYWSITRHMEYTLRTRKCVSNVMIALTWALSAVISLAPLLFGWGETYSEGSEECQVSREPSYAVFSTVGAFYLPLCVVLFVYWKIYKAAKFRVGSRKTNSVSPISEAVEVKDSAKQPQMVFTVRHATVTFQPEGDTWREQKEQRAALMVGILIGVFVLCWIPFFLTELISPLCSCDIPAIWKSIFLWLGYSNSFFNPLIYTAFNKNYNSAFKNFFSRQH
# UniProt P29317, sequence (whole entry, looked up): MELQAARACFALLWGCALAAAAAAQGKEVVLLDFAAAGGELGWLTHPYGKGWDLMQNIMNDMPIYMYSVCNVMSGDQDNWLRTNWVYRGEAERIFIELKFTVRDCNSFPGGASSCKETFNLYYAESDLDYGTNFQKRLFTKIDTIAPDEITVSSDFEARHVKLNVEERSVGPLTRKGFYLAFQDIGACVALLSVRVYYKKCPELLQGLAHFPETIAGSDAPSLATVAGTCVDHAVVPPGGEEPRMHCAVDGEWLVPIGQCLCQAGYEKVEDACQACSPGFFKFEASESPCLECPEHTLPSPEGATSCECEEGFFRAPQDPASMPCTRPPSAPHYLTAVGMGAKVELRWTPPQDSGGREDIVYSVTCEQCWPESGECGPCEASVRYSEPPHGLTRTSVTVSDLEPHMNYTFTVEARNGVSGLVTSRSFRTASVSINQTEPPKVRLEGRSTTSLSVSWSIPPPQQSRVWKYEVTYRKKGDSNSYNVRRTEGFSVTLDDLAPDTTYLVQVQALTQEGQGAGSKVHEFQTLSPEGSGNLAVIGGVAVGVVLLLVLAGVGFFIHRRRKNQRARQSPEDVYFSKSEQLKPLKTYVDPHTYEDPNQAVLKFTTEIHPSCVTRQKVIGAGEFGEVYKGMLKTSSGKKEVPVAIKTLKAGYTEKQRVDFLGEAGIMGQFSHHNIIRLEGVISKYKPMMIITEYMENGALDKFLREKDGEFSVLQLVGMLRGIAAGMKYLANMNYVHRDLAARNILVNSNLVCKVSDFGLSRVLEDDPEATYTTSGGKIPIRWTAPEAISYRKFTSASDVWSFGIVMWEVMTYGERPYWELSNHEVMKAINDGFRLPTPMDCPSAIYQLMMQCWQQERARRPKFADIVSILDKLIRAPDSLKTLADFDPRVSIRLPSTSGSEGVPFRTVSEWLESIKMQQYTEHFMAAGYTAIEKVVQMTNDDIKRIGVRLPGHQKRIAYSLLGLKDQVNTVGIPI
# UniProt P37023, sequence (whole entry, looked up): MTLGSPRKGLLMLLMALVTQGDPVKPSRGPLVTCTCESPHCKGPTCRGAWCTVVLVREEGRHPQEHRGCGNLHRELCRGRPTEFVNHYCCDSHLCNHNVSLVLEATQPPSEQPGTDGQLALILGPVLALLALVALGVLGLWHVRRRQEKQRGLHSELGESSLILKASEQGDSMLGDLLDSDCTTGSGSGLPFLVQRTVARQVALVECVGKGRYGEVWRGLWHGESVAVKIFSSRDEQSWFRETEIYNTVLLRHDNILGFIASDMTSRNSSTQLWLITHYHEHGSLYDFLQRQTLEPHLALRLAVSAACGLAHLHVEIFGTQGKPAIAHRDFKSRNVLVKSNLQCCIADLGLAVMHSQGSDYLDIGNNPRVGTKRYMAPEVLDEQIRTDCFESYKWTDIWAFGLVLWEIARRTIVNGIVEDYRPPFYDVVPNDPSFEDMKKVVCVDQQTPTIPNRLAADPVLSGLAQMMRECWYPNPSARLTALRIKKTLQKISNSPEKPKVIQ

# Series 1
# Host: human
# Sample: microsomes or S9
# Concentration: 2 µM
# Time: 0.5 h
Structure (SMILES),remaining compound
CC(C)COc1cc(=O)n2c(c1C(=O)NCCCN1CCOCC1)CCCCC2,85.5%
Brc1cccc(-c2cnc3n2CCCCC3)c1,1.05%
O=C(NCC1OCCc2sc(F)cc21)c1ccn2nnnc2c1 (centres unmarked),> 100%
CC(C)c1cc(C(C)C)c(S(=O)(=O)NCCCO)c(C(C)C)c1,1.82%
COc1ccc2c(c1)C(=O)CC(c1ccccc1)O2 (centres unmarked),86.3%

# Series 2
# Compound: O=c1cc(N2CCOCC2)oc2c1ccc1ccccc12
# Observed: enzyme activity
# Action: inhibitor
# Concentration: 0.5 µM
# Baseline: control
target,remaining activity
"JAK2 (Homo sapiens, UniProt O60674)",94.9%
"BRSK2 (Homo sapiens, UniProt Q8IWQ3)",92.6%
"EPHB3 (Homo sapiens, UniProt P54753)",90%
"YES1 (Homo sapiens, UniProt P07947)",98.7%
"ACVRL1 (Homo sapiens, UniProt P37023)",100%
"CAMK1 (Homo sapiens, UniProt Q14012)",111%
"CSNK1D (Homo sapiens, UniProt P48730)",97.9%
"TYRO3 (Homo sapiens, UniProt Q06418)",97.3%
"CSNK1E (Homo sapiens, UniProt P49674)",92.5%
"PAK4 (Homo sapiens, UniProt O96013)",108%
"MARK1 (Homo sapiens, UniProt Q9P0L2)",99.5%
"TEC (Homo sapiens, UniProt P42680)",150%
"FES (Homo sapiens, UniProt P07332)",100%
"Cyclin-dependent kinase 2, with cyclin E (CDK2, Homo sapiens, UniProt P24941)",119%
"DYRK1A (Homo sapiens, UniProt Q13627)",79%
"SIK2 (Homo sapiens, UniProt Q9H0K1)",126%
"SGK2 (Homo sapiens, UniProt Q9HBY8)",102%
"CLK2 (Homo sapiens, UniProt P49760)",101%
"EPHA2 (Homo sapiens, UniProt P29317)",110%

# Series 3
# Cell line: HaCaT
# Concentration: 100 µM
# Time: 18 h
Compound,viability
NCCCC(N)(C(=O)O)C(F)F (centres unmarked),99%
Clc1ccc(C(Cn2ccnc2)OCc2csc3c(Cl)cccc23)c(Cl)c1 (centres unmarked),16.6%
CCOC(=O)[C@H](CCc1ccccc1)N[C@@H](C)C(=O)N(CC(=O)O)C1Cc2ccccc2C1,46.9%
CN1CCN2c3ncccc3Cc3ccccc3C2C1 (centres unmarked),97.9%
COc1ccc(-c2nc3ccc(C4=NNC(=O)CC4C)cc3[nH]2)cc1 (centres unmarked),28.2%
COc1cc(Nc2c(C#N)cnc3cc(OCCCN4CCN(C)CC4)c(OC)cc23)c(Cl)cc1Cl,93.8%
C=CC(=O)N1CCC[C@@H](n2nc(-c3ccc(Oc4ccccc4)cc3)c3c(N)ncnc32)C1,15.6%

# Series 4
# SMILES: Cc1cc(NC(=O)c2cccc(S(F)(F)(F)(F)F)c2)cc(-n2ccn3nc(-c4cccnc4)cc23)c1
# Observed: ligand displacement
# Technique: radioligand
# Concentration: 10 µM
target,inhibition [%]
"HRH2 (Homo sapiens, UniProt P25021)",1.31
"ADRA1B (Homo sapiens, UniProt P35368)",-2.4
"ADRA2C (Homo sapiens, UniProt P18825)",3.16
"ADRA2A (Homo sapiens, UniProt P08913)",18.1
"HTR5A (Homo sapiens, UniProt P47898)",-8.05

# Further values, each from its own experiment
SMILES,target or system,assay,test system,conditions,scale,endpoint,result
O=C(COc1ccccc1P(=O)(O)O)NCC(F)(F)c1cccc(F)c1,human islets,"qPCR, refers to: ALDH1A3",,"concentration not given, unit not given, added: high glucose (20 mM)",baseline: low glucose control,mRNA level,2.13 and 2.75 and 4.33 and 3.49
Cc1[nH]nc2ccc(-c3cncc(OC[C@@H](N)Cc4ccccc4)c3)cc12,HH,CCK-8,,"2 µM, 48 h",baseline: untreated control,log10 relative viability,-0.805
CCOC(=O)[C@@H]1CSCC(=O)N[C@H](CC)C(=O)N(C)[C@@H](C)C(=O)N[C@H](CC(C)C)C(=O)N2CCC[C@H]2C(=O)N(CC(C)C)CC(=O)N[C@@H](CC(C)C)C(=O)N(C)[C@H](C)C(=O)N[C@@H](CC(C)C)C(=O)N1C,,,hydrocarbon/water,,,logD,0.815
c1ccc2c(-c3nn4c(-c5ccncc5)nnc4s3)c[nH]c2c1,HEK293T ATF4-firefly luciferase reporter,"integrated stress response, refers to: ATF4",,"10 µM, without ISRIB",baseline: DMSO,reporter signal,191% and 178% and 195% and 228% and 185% and 220% and 201%
CCOC(=O)c1cnc2ccc(-c3cncc(NS(=O)(=O)c4ccccc4)c3)cn12,HH,CCK-8,,"2 µM, 48 h",baseline: untreated control,log10 relative viability,-0.627

# Repeated from above (series 3):
Compound,viability
C=CC(=O)N1CCC[C@@H](n2nc(-c3ccc(Oc4ccccc4)cc3)c3c(N)ncnc32)C1,15.6%
Clc1ccc(C(Cn2ccnc2)OCc2csc3c(Cl)cccc23)c(Cl)c1 (centres unmarked),16.6%
COc1ccc(-c2nc3ccc(C4=NNC(=O)CC4C)cc3[nH]2)cc1 (centres unmarked),28.2%
CCOC(=O)[C@H](CCc1ccccc1)N[C@@H](C)C(=O)N(CC(=O)O)C1Cc2ccccc2C1,46.9%
COc1cc(Nc2c(C#N)cnc3cc(OCCCN4CCN(C)CC4)c(OC)cc23)c(Cl)cc1Cl,93.8%
